Experimental data gathered from unrelated publications.
± gives the spread as reported.

Compound | assay | test system | setting | Cmax
Cc1cccc(CNC(=O)c2cn(CCNC(=O)c3ccccc3S)c3cc4c(cc3c2=O)OC(F)(F)O4)n1 |  | Sprague-Dawley rat, male, whole blood | intravenous, 5 mg/kg of parent compound | 4120 ± 506 ng/mL
COCCOc1cnc2ccn([C@H](C)c3nnc4c(F)cc(-c5cnn(C)c5)cn34)c(=O)c2c1 |  | patients, plasma | oral, 25 mg once daily, day 1 | 500 ng/mL
C[C@H]1CN(C(=O)CC#N)[C@]12CCN(c1ncnc3[nH]ccc13)C2 |  | healthy adults, plasma | oral, 1.5 mg single dose, day 1, geometric mean | 7.22 ng/mL
C[C@@H]1CCO[C@H]2Cn3cc(C(=O)NCc4ccc(F)cc4F)c(=O)c(O)c3C(=O)N12 |  | human, body weight 10 to <14 kg, plasma | oral, 8 mg, granules, steady state | 2750 ng/mL
CCCCC1=NC2(CCCC2)C(=O)N1Cc1ccc(-c2ccccc2S(=O)(=O)Nc2noc(C)c2C)c(COCC)c1 |  | healthy adult volunteers, plasma | oral, 1600 mg, 14 days repeated dosing, fasted, crushed tablet | 8930 ng/mL
CN1CCC[C@H](CN2c3ccccc3Sc3ccccc32)C1.Cl |  | Wistar rat female, skin | oral, 16 mg/kg | 1570 ng/g
CSc1ccccc1C(=O)NCCn1cc(C(=O)NCc2cccc(C)n2)c(=O)c2cc3c(cc21)OC(F)(F)O3 |  | Sprague-Dawley rat, male, plasma | intramuscular, 3 mg/kg of parent drug | 4.95 ± 1.31 ng/mL
CCOc1c([C@H](C)n2nc(C)c3c(N)ncnc32)cc(Cl)c(F)c1[C@@H]1CNC(=O)C1 |  | patients, monotherapy | oral, 10 mg once daily, cycle 1 day 15 | 856 ± 449 nM
CCc1nc(C(N)=O)c(Nc2ccc(N3CCC(N4CCN(C)CC4)CC3)c(OC)c2)nc1NC1CCOCC1 |  | Japanese patients, plasma | oral, 120 mg, cycle 1 day 28, multiple doses, median | 680 ng/mL
COc1ncc(-c2nc3c(n2C(C)C)[C@H](c2ccc(Cl)cc2)N(c2cc(Cl)cn(C)c2=O)C3=O)c(OC)n1 | LC-MS/MS | human, plasma | oral, 250 mg, cycle 1 day 1, high-dose arm | 2020 ng/mL

A few entries again:
Compound | assay | test system | setting | Cmax
CN1CCC[C@H](CN2c3ccccc3Sc3ccccc32)C1.Cl |  | Wistar rat female, skin | oral, 16 mg/kg | 1570 ng/g
